Published values gathered from unrelated publications.
Several values in a cell are separate wells, animals, samples, runs or records. ± marks the error that the study gave.

CCCCCOC(=O)Nc1nc(=O)n([C@@H]2O[C@H](C)[C@@H](O)[C@H]2O)cc1F
Tmax (Sprague-Dawley rat, plasma; oral, 200 mg/kg, with: chitooligosaccharide 20 min before glucosamine 250 mg/kg): 9.17 ± 2.04 min

CCc1c(-c2ccccc2)c(-c2ccccc2)nn1-c1ccccc1-c1cccc(OCC(=O)O)c1
Tmax (Sprague-Dawley rat; intravenous, dose not given): 4.98 min

CC(C)c1nc(N(C)S(C)(=O)=O)nc(-c2ccc(F)cc2)c1/C=C/[C@@H](O)C[C@@H](O)CC(=O)O
Tmax (Wistar albino rat, both sexes, plasma; oral, 20 mg/kg): 330 min and 180 min and 60 min

CC[C@H](C)[C@H](NC(=O)[C@@H]1CCCN1C(=O)CNC(=O)[C@H](Cc1ccccc1)NC(=O)[C@H](CC(N)=O)NC(=O)[C@H](CC(N)=O)NC(=O)[C@H](CO)NC(=O)[C@H](CO)NC(=O)[C@H](Cc1c[nH]cn1)NC(=O)[C@@H](NC(=O)[C@H](CC(C)C)NC(=O)[C@H](Cc1ccccc1)NC(=O)[C@H](CC(N)=O)NC(=O)[C@H](C)NC(=O)[C@H](CC(C)C)NC(=O)[C@H](CCCNC(=N)N)NC(=O)[C@H](CCC(N)=O)NC(=O)[C@@H](NC(=O)[C@H](C)NC(=O)[C@@H]1CSSC[C@H](NC(=O)[C@@H](N)CCCCN)C(=O)N[C@@H](CC(N)=O)C(=O)N[C@@H]([C@@H](C)O)C(=O)N[C@@H](C)C(=O)N[C@@H]([C@@H](C)O)C(=O)N1)[C@@H](C)O)C(C)C)C(=O)N[C@@H](CC(C)C)C(=O)N1CCC[C@H]1C(=O)N1CCC[C@H]1C(=O)N[C@H](C(=O)N[C@@H](CC(N)=O)C(=O)N[C@H](C(=O)NCC(=O)N[C@@H](CO)C(=O)N[C@@H](CC(N)=O)C(=O)N[C@H](C(=O)N[C@@H](Cc1ccc(O)cc1)C(N)=O)[C@@H](C)O)C(C)C)[C@@H](C)O
Tmax (ELISA; Sprague-Dawley rats, serum; subcutaneous, 30 µg/kg): 30 min

C1=C/COCc2cc(ccc2OCCN2CCCC2)Nc2nccc(n2)-c2cccc(c2)COC/1
Tmax (Sprague-Dawley rats, male, plasma; oral, dose not given, with: isavuconazole; relative to: isavuconazole alone): 15 % decrease

C=CC(=O)N1CCC(Oc2cc3c(Nc4ccc(Cl)c(Cl)c4F)ncnc3cc2OC)CC1
Tmax (Sprague-Dawley rat, male, plasma; oral, 2 mg/kg, 1 weeks pretreatment, with: Schisandrin B 20 mg/kg daily pretreatment): 21.6 ± 20.4 min

CSc1ccccc1C(=O)NCCn1cc(C(=O)NCc2cccc(C)n2)c(=O)c2cc3c(cc21)OC(F)(F)O3
Tmax (Sprague-Dawley rat, male, whole blood; intramuscular, 3 mg/kg of parent drug): 240 ± 120 min

O=C1c2ccncc2C(=O)c2c1[nH]c1ccccc21
Tmax (Sprague-Dawley rat, female, plasma; intravenous, 1 mg/kg): 4.8 min

C=CC(=O)N1CCC[C@@H](n2nc(-c3ccc(Oc4ccccc4)cc3)c3c(N)ncnc32)C1
Tmax (male Wistar rat, liver; oral, 50 mg/kg): 45 ± 0.6 min

Cc1nc(-c2cnc(NC(C)C)n(C)c2=O)ccc1Oc1ccnc(-c2cnn(C)c2)c1
Tmax (Sprague-Dawley rat, male, plasma; intravenous, 1 mg/kg, crossover study): 4.8 min

CN1CCC[C@H](CN2c3ccccc3Sc3ccccc32)C1.Cl
Tmax (Wistar rats, female, kidney; oral, 16 mg/kg): 360 min

CCOc1c([C@H](C)n2nc(C)c3c(N)ncnc32)cc(Cl)c(F)c1[C@@H]1CNC(=O)C1
Tmax (Sprague-Dawley rat, plasma; oral gavage, 2.0 mg/kg): ~120 min

NS(=O)(=O)c1ccc(-n2nc(C(F)(F)F)cc2-c2ccc(C(=O)O)cc2)cc1
Tmax (Sprague-Dawley rat, whole blood; oral, 20 mg/kg of celecoxib): 1280 min

O=C(O)c1cc(O)c(O)c(O)c1
Tmax (rat, plasma; oral, 500 mg/kg extract, extract): 56.4 ± 3.6 min

Cc1cc(-c2ccc3cc[nH]c(=O)c3c2)ccc1O[C@H]1O[C@H](CO)[C@@H](O)[C@H](O)[C@@H]1O
Tmax (male Sprague-Dawley rat, plasma; oral, 10 mg/kg, group mean): 20 min

CCCCCCCOc1ccc(CCC(N)(CO)CO)cc1C(F)(F)F.Cl
Tmax (LC-MS/MS; Sprague Dawley rat, male, plasma; oral, 1 mg/kg, single): 120 min

CC[C@@H]([C@H](C)O)n1ncn(-c2ccc(N3CCN(c4ccc(OC[C@@H]5CO[C@@](Cn6cncn6)(c6ccc(F)cc6F)C5)cc4)CC3)cc2)c1=O
Tmax (Sprague-Dawley rats, plasma; oral, 40 mg/kg, with: zanubrutinib 16 mg/kg): 720 min

Cc1cccc(CNC(=O)c2cn(CCNC(=O)c3ccccc3Sc3c([N+](=O)[O-])ncn3C)c3cc4c(cc3c2=O)OC(F)(F)O4)n1
Tmax (Sprague-Dawley rat, male, plasma; intramuscular, 30 mg/kg of parent drug): 11.4 ± 3.6 min

OCC1=C[C@@H](O)[C@@H]2C=CO[C@@H](O[C@@H]3O[C@H](CO)[C@@H](O)[C@H](O)[C@H]3O)[C@H]12
Tmax (rat, plasma; oral, 500 mg/kg Eu extract, dosed as Eu extract): 120 ± 90 min

N=C(N)NCCNC(=O)C1(Nc2ccccc2)CCN(Cc2ccccc2)CC1
Tmax (male Sprague-Dawley rats, plasma; oral, 50 mg/kg): 12 min

CNC(=O)c1cccc(-c2ccc([C@@H](O)[C@H]3O[C@H](CO)[C@@H](O)[C@H](O)[C@@H]3O)c(C)c2)c1
Tmax (Sprague-Dawley rat, male, plasma; oral, 10 mg/kg): 30 min

CCc1cc(C(=O)NC)c2nccc(N3CCc4c(cc(Cn5ccnc5)cc4-c4cn(C)nc4C(F)(F)F)C3=O)c2c1
Tmax (Sprague Dawley rat, male, plasma; oral, 100 mg/kg twice daily, 7 days): 390 min

CNC(=O)c1cccc(-c2ccc(O[C@H]3O[C@H](CO)[C@@H](O)[C@H](O)[C@@H]3O)c(C)c2)c1
Tmax (male Sprague-Dawley rat, plasma; intravenous, 3 mg/kg, group mean): 4.98 min

COC(=O)C1=CO[C@@H](O[C@@H]2O[C@H](CO)[C@@H](O)[C@H](O)[C@H]2O)[C@@H]2C(CO)=CC[C@H]12
Tmax (Sprague-Dawley rat, internal jugular vein plasma; oral, 500 mg/kg Eu extract, dosed as Eu extract): 30 min

Cc1cccc(CNC(=O)c2cn(CCNC(=O)c3ccccc3S)c3cc4c(cc3c2=O)OC(F)(F)O4)n1
Tmax (Sprague-Dawley rat, male, whole blood; intramuscular, 10 mg/kg of parent drug): 43.2 ± 38.4 min

O=C(O)C1=CO[C@@H](O[C@@H]2O[C@H](CO)[C@@H](O)[C@H](O)[C@H]2O)[C@@H]2C(CO)=CC[C@H]12
Tmax (Sprague-Dawley rat, internal jugular vein plasma; oral, 500 mg/kg Eu extract, dosed as Eu extract): 79.8 ± 17.4 min

CN(C)C(=O)c1cc2cnc(Nc3ccc(N4CCNCC4)cn3)nc2n1C1CCCC1
Tmax (intracerebral microdialysis; Sprague-Dawley rat, male, brain extracellular fluid, striatal dialysate; intraperitoneal, 100 mg/kg): ~360 min
